Assay results from different studies.
Parts stem from different laboratories: compare values within a part only.

Series 1
Target: Histone acetyltransferase KAT6A, winged helix 1, GST fusion (KAT6A, Homo sapiens, UniProt Q92794, residues 1-85)
Method: protein binding microarray
Molecule type: double-stranded DNA, one strand shown
Sample: in vitro
Tested at: not given
Notes: 8-mer, flanks averaged, mean of 2 arrays, mostly near background
Baseline: not given
Reading: higher = stronger binding
Target sequence (chain): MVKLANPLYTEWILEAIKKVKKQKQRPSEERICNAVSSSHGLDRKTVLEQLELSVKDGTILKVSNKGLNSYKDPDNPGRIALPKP
For `AACCACTA`, the E-score was -0.239.
The E-score of `CCTCGATA` is reported as 0.0558.
For `CTGAACCC`, the E-score was 0.0977.
`ATGGACTG` gave an E-score of -0.252.

Other studies, line by line
CTCF: Transcriptional repressor CTCF (CTCF, Homo sapiens, UniProt P49711, residues 1-727, full length assumed)
Chain of UniProt P49711 (whole entry, looked up): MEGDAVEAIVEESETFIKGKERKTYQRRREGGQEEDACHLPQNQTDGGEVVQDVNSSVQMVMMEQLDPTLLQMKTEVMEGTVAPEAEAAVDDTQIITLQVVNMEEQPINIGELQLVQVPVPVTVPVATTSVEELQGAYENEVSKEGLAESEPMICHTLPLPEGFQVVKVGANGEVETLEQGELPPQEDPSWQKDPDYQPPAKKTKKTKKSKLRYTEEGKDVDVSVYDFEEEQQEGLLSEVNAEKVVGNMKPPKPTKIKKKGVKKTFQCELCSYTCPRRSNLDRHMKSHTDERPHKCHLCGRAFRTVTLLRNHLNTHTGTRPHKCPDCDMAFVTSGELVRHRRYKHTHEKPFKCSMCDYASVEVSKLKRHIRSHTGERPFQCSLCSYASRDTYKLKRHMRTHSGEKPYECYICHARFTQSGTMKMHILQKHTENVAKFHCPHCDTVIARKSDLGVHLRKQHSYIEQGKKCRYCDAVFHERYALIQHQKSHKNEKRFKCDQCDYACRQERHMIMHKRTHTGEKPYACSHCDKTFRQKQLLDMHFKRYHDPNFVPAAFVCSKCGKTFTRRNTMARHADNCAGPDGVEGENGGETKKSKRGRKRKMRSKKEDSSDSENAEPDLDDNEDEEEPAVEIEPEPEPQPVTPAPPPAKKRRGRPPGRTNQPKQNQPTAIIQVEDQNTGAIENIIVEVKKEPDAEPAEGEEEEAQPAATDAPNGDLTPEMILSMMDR
SALL4 full length isoform B: Sal-like protein 4, full length isoform B (SALL4, Homo sapiens, UniProt Q9UJQ4-2, residues 1-616)
With `CTTTTCAC` the E-score was 0.316 (CTCF; protein-binding microarray; double-stranded DNA, one strand shown, in vitro; not given, k-mer, scored over probes, only values ≥0.25; higher = stronger binding).
For `CTCACCTA`, the E-score was 0.157 (SALL4 full length isoform B; universal PBM; double-stranded DNA, one strand shown, in vitro; not given, 8-mer, flanks averaged, mean of replicates; higher = stronger binding).
The fold induction of `PhoQ, residues 284 288 289 292 302 303 AQGLTV` is reported as 0.557 (PhoP, residues 12 14 15 18 19 NFCKL (Escherichia coli, UniProt P23836); Sort-seq, item: YFP reporter; E. coli; PhoQ-PhoP variant library, added: 10 µM Mg2+; baseline: high Mg2+ state, higher = stronger signaling).
For `AAGGCGTG`, the E-score was -0.176 (SALL4 full length isoform B; universal PBM; double-stranded DNA, one strand shown, in vitro; not given, 8-mer, flanks averaged, mean of replicates; higher = stronger binding).
For `ATTAAAAA`, the E-score was 0.299 (CTCF; protein-binding microarray; double-stranded DNA, one strand shown, in vitro; not given, k-mer, scored over probes, only values ≥0.25; higher = stronger binding).

Some of these lines once more (other studies, line by line):
For `ATTAAAAA`, the E-score was 0.299 (CTCF; protein-binding microarray; double-stranded DNA, one strand shown, in vitro; not given, k-mer, scored over probes, only values ≥0.25; higher = stronger binding).
